Experimental data gathered from unrelated publications.
Every numbered part comes from another study and shows a few of its results, in no order.

Sample 1
Target: TAR DNA-binding protein 43, full length, His tag (TARDBP, Homo sapiens, UniProt Q13148, residues 1-414)
Technique: RNA Bind-n-Seq
Molecule type: RNA
Medium: in vitro
Tested at: 20 nM
Notes: 6-mer, flanks averaged, single round
Together with: 150 mM KCl
Relative to: input library
Direction: higher = stronger binding
Under “6-mer enrichment (R)”, `GAAAUA` is recorded as 0.681.
For `GCAUAU`, “6-mer enrichment (R)” read 0.676.
For `UGAGGC`, “6-mer enrichment (R)” read 1.44.
`UUGUUA` — result for “6-mer enrichment (R)”: 0.657.
`AGCUUA`: “6-mer enrichment (R)” 0.592.
`UCCGAC`: “6-mer enrichment (R)” 0.625.
`AUAGCU`: “6-mer enrichment (R)” 0.6.
For `ACGCAG`, “6-mer enrichment (R)” read 0.93.
`CUGCAA`: “6-mer enrichment (R)” 0.646.
`UCAAUC` — result for “6-mer enrichment (R)”: 0.541.
Under “6-mer enrichment (R)”, `ACGAGU` is recorded as 0.877.
Under “6-mer enrichment (R)”, `UGCAUC` is recorded as 0.622.
Under “6-mer enrichment (R)”, `GCCAAA` is recorded as 0.8.
Under “6-mer enrichment (R)”, `UUAACU` is recorded as 0.569.
Under “6-mer enrichment (R)”, `GUAGCC` is recorded as 0.839.
For `ACCGAG`, “6-mer enrichment (R)” read 0.927.
`CCUCUA`: “6-mer enrichment (R)” 0.573.
`AACUAG` — result for “6-mer enrichment (R)”: 0.699.
Under “6-mer enrichment (R)”, `AAGCUC` is recorded as 0.576.
Under “6-mer enrichment (R)”, `CGCGGU` is recorded as 1.37.
Under “6-mer enrichment (R)”, `AAUUCG` is recorded as 0.61.
`AGGAGG` — result for “6-mer enrichment (R)”: 4.1.
`CAAUAG` — result for “6-mer enrichment (R)”: 0.692.
Under “6-mer enrichment (R)”, `CAGAUA` is recorded as 0.622.
For `CAGGAC`, “6-mer enrichment (R)” read 0.911.

Sample 2
Target: Prothrombin, mature alpha-thrombin (F2, Homo sapiens, UniProt P00734)
Technique: aptamer microarray, sandwich
Molecule type: DNA with 2'F-ANA
Medium: in vitro
Tested at: 200 nM
Notes: whole 15-mer aptamer, many near background
Together with: Cy3 exosite-II aptamer, 400 nM
Direction: higher = stronger binding
Oligonucleotide: GGTTGGTGTGGTTGG
`2'F-ANA at 1 5 6 8 9` — result for “mean fluorescence intensity”: 103 a.u.
For `2'F-ANA at 2 3 4 6 8 9 10 11 12 13 14`, “mean fluorescence intensity” read 154 a.u.
For `2'F-ANA at 2 3 5 7 11 14`, “mean fluorescence intensity” read 58.4 a.u.
`2'F-ANA at 3 4 5 6 8 9 12 13`: “mean fluorescence intensity” 155 a.u.
For `2'F-ANA at 1 4 5 8 9 13 15`, “mean fluorescence intensity” read 62.9 a.u.
`2'F-ANA at 1 2 3 4 5 9 11 12 13 14` — result for “mean fluorescence intensity”: 48.3 a.u.
Under “mean fluorescence intensity”, `2'F-ANA at 1 7 11 13 14` is recorded as 54.2 a.u.
Under “mean fluorescence intensity”, `2'F-ANA at 3 4 5 7 9 13 15` is recorded as 59 a.u.
For `2'F-ANA at 2 6 7 10 11 12 13 15`, “mean fluorescence intensity” read 121 a.u.
`2'F-ANA at 2 3 4 5 6 8 12 13` — result for “mean fluorescence intensity”: 132 a.u.
For `2'F-ANA at 2 3 4 6 7 8 9 15`, “mean fluorescence intensity” read 549 a.u.
`2'F-ANA at 2 3 4 5 7 8 10 12 14` — result for “mean fluorescence intensity”: 111 a.u.
Under “mean fluorescence intensity”, `2'F-ANA at 4 6 7 8 11 12 13` is recorded as 363 a.u.
`2'F-ANA at 1 4 7 8 12 13 14 15` — result for “mean fluorescence intensity”: 66.3 a.u.
`2'F-ANA at 3 4 7 12 14`: “mean fluorescence intensity” 536 a.u.
Under “mean fluorescence intensity”, `2'F-ANA at 2 3 6 10 11 14 15` is recorded as 219 a.u.
`2'F-ANA at 2 3 4 7 8 9 10 11 13 14`: “mean fluorescence intensity” 179 a.u.
`2'F-ANA at 1 2 6 7 13` — result for “mean fluorescence intensity”: 119 a.u.
For `2'F-ANA at 1 4 6 7 8 11 13 14 15`, “mean fluorescence intensity” read 59.3 a.u.
`2'F-ANA at 1 2 4 6 7 10 11 15` — result for “mean fluorescence intensity”: 48.9 a.u.

Sample 3
Target: RNA binding protein fox-1 homolog 2, RRM domain, GST-SBP tag (RBFOX2, Homo sapiens, UniProt O43251-10, residues 100-194)
Technique: RNA Bind-n-Seq
Molecule type: RNA
Medium: in vitro
Tested at: 365 nM
Notes: natural RNA segment, single round, ends assumed
Relative to: no-protein control
Direction: higher = stronger binding
`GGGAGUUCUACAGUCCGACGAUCAGAAGCAUUGAAAACAAAGACAUUCUUCCCACUUCUUGGAUUUUUAAACCACAGUCUGGAGUGAUAGCUACUGUAGAAAGGAAAUAGACUUUGUAUGAACUCUUUAAGUUUGGAAUUCUCGGGUGCCAA` — result for “RBNS enrichment (R)”: 0.612.
`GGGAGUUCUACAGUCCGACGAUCUGGAUAUCAUCAAAACUAUCUUUGUGCUCCCAAAACUUGGUGUUCAUGUGUAUCCCUUUAAGUUGUUUCUCCUUGACACGCUCCACAAUGGCAAAGAUACCAAGUCAUACUGGAAUUCUCGGGUGCCAA`: “RBNS enrichment (R)” 0.55.
`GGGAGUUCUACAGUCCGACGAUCUGUGUCAGUUACACCUUAUCCACAUAGCCUGAGGGUAAUUUUAUACGAUAUUUUAAAUAGUUGUGUACAUGAAGCAUGGUUUGUGGUAACUUAUGUGAGGGGUUUUCCCAUGGAAUUCUCGGGUGCCAA` — result for “RBNS enrichment (R)”: 4.63.
For `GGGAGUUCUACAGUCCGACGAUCAAAAAUCUUAUAAGGUUUUACCCUUGAUACGGAAUUUACACAGGUAGGGAGUGUUUAGUGGACAAUAGUGUAGGUUAUGGAUGGAGGUGUCGGUACUAAAUUGAAUAACGUGGAAUUCUCGGGUGCCAA`, “RBNS enrichment (R)” read 1.78.
`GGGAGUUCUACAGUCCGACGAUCUGUCUUGACACAAGCUGUUUUUACACCAGUGUCAUCCCUUUCUUGUAGAAUAUACUAAUAAUCUGUGCCAACUCUACCUUCCCACUUUUACCUCUGACAUCAUUCUUUUUUGGAAUUCUCGGGUGCCAA` — result for “RBNS enrichment (R)”: 0.88.
Under “RBNS enrichment (R)”, `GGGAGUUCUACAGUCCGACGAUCUUAAGCAACCCACAAAUUUCUUCUCAGAUUUGUUUCCUAGAUUACUUAUGAUACUCAUCCCAUGUCUCAAUAAGAGUGUCUUUUCUUUCUGGAUGUGUUCUCUUACUCCCUGGAAUUCUCGGGUGCCAA` is recorded as 0.429.
For `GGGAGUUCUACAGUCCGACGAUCGCUUGUGGCCACUUGCCCAGCACAACUGUGUUUUGUGGGGCGUCUUUUAGGACUUAGCAGAGCUGAGAGCCCUUUGUUGCUCAAUGCUGUGAGCCUUAAGCAUGUGAAUCUGGAAUUCUCGGGUGCCAA`, “RBNS enrichment (R)” read 2.89.
Under “RBNS enrichment (R)”, `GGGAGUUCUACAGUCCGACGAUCUAUCAAUCAGAAUUGGAGUUUUUAACAGUGGUCAUUAUCAAAGCUGUGUUAUUUUCCACAGAAUAUAGAAUAUAUAUUUUUUUCGUGUGUGUUUUUGUUAACUACCCUACUGGAAUUCUCGGGUGCCAA` is recorded as 0.522.

Sample 4
Target: Sal-like protein 4, full length isoform B (SALL4, Homo sapiens, UniProt Q9UJQ4-2, residues 1-616)
Technique: universal PBM
Molecule type: double-stranded DNA, one strand shown
Medium: in vitro
Tested at: not given
Notes: 8-mer, flanks averaged, mean of replicates
Direction: higher = stronger binding
Target sequence (chain): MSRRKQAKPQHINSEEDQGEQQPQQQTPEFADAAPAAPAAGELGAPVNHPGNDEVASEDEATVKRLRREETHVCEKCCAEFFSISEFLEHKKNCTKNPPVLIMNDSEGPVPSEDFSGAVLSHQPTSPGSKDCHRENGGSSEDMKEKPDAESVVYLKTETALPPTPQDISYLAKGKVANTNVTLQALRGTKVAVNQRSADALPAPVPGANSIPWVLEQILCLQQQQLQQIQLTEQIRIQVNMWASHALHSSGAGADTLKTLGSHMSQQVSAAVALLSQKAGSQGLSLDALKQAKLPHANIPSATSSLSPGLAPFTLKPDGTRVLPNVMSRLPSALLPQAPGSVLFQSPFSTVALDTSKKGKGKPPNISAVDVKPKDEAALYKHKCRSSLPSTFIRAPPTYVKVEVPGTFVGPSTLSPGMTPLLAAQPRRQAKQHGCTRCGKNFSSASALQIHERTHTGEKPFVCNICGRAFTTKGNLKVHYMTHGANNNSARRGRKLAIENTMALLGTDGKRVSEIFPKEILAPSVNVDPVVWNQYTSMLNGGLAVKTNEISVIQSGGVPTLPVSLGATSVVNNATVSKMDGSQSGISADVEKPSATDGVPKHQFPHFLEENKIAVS
With `AAATCGAT` the E-score was 0.0824.
With `AGACACGC` the E-score was -0.175.
`CAGGAGAA` gave an E-score of -0.0312.
The E-score of `AACTCAAC` is reported as 0.0851.
For `AGCAGGGC`, the E-score was -0.294.
With `GCACGAAA` the E-score was 0.0444.
With `AATCGTAG` the E-score was 0.244.
For `CATTCATC`, the E-score was 0.136.
`AGAATTGG` has an E-score of 0.0371.
The E-score of `CTACAGAA` is reported as 0.125.
The E-score of `CCGTTGAA` is reported as 0.0539.
The E-score of `CCACAGTA` is reported as 0.0525.
`ACGATAGT` gave an E-score of 0.15.
`ATTCGCGC` has an E-score of -0.122.
With `AACTTCTA` the E-score was 0.0753.
`GCGCAGTA` has an E-score of -0.111.
For `AGCGGGGA`, the E-score was -0.036.

Sample 5
Target: Histone acetyltransferase KAT6A, winged helix 2, GST fusion (KAT6A, Homo sapiens, UniProt Q92794, residues 85-181)
Technique: protein binding microarray
Molecule type: double-stranded DNA, one strand shown
Medium: in vitro
Tested at: not given
Notes: 8-mer, flanks averaged, mean of 2 arrays, mostly near background
Relative to: not given
Direction: higher = stronger binding
Residues (chain): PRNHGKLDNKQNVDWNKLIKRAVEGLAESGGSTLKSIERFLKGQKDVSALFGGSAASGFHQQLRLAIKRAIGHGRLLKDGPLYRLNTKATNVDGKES
For `CACTGAGC`, the E-score was 0.031.
With `ACAAGCAG` the E-score was -0.0602.
`GATAGTAC` has an E-score of -0.0492.
`ATGTTCTA` has an E-score of -0.137.
For `CCAAGCGC`, the E-score was 0.178.
The E-score of `ATACCGGG` is reported as -0.0105.
For `CGTCATAC`, the E-score was 0.0453.
The E-score of `CCTTACCA` is reported as -0.196.
The E-score of `AAACCGTT` is reported as -0.115.
For `GTGAAAAC`, the E-score was 0.176.
For `TAATACCA`, the E-score was -0.0183.
With `CCAATCCC` the E-score was -0.0999.
For `TCGCCAGA`, the E-score was 0.168.
`CCACCAAA` has an E-score of 0.145.
With `CTATAGGC` the E-score was -0.0384.
`TGGAACCA` has an E-score of 0.0383.
`CCGCTATA` has an E-score of -0.127.
For `TAAGCAAA`, the E-score was 0.0086.
The E-score of `CGTAGCCA` is reported as -0.0539.
`CATTGAGA` has an E-score of -0.00412.
